Assay results of several laboratories.
± gives the spread as reported.
Organism: Plasmodium falciparum

For `CC[C@H](C)[C@@H]1NC(=O)[C@H](CCCCN)NC(=O)[C@H](CCCCN)NC(=O)[C@H](Cc2ccc(O)cc2)NC(=O)[C@H](CC(C)C)NC(=O)[C@@H]2CCCN2C(=O)CNC(=O)CNC(=O)[C@@H](N)CSSC[C@@H](C(=O)N[C@@H](CCC(=O)O)C(=O)N[C@@H](CO)C(N)=O)NC(=O)[C@H](CC(C)C)NC(=O)[C@H](CCCCN)NC(=O)[C@H](CCCCN)NC(=O)[C@H]([C@@H](C)CC)NC(=O)[C@H]([C@@H](C)CC)NC(=O)[C@H](CCCCN)NC(=O)[C@H](CCCCN)NC(=O)[C@H](Cc2ccc(O)cc2)NC(=O)[C@H](CC(C)C)NC(=O)[C@@H]2CCCN2C(=O)[C@H](C)NC(=O)CNC(=O)CNC(=O)[C@H](CO)NC(=O)CNC(=O)CNC(=O)[C@H](CO)NC(=O)[C@H](CCC(=O)O)NC(=O)[C@H](CC(C)C)NC(=O)[C@H](CC(C)C)NC(=O)[C@H](CCCCN)NC(=O)[C@H](CCCCN)NC(=O)[C@H]([C@@H](C)CC)NC1=O`, the IC50 was 12.5 ± 0.8 µM (parasite growth; 3D7; 72 h, Albumax II medium, no serum).
`C=CC1CN2CCC1CC2C(OC(=O)NCCCCCCNC(=O)OC(c1ccnc2ccc(OC)cc12)C1CC2CCN1CC2C=C)c1ccnc2ccc(OC)cc12` (stereo not shown) has an IC50 of 0.082 ± 0.012 µM (parasite growth; C6 7G8 pfcrt transfectant).
The IC50 of `CC[C@H](C)[C@@H]1NC(=O)[C@H](CCCCN)NC(=O)[C@H](CCCCN)NC(=O)[C@H](Cc2ccc(O)cc2)NC(=O)[C@H](CC(C)C)NC(=O)[C@@H]2CCCN2C(=O)[C@H](C)NC(=O)CNC(=O)CNC(=O)[C@H](CO)NC(=O)CNC(=O)CNC(=O)[C@H](CO)NC(=O)[C@H](CCC(=O)O)NC(=O)[C@H](CC(C)C)NC(=O)[C@H](CC(C)C)NC(=O)[C@H](CCCCN)NC(=O)[C@H](CCCCN)NC(=O)[C@H]([C@@H](C)CC)NC(=O)[C@H]([C@@H](C)CC)NC(=O)[C@H](CCCCN)NC(=O)[C@H](CCCCN)NC(=O)[C@H](Cc2ccc(O)cc2)NC(=O)[C@H](CC(C)C)NC(=O)[C@@H]2CCCN2C(=O)[C@H](C)NC(=O)CNC(=O)[C@@H](NC(=O)CN)CSSC[C@@H](C(=O)N[C@@H](CCC(=O)O)C(=O)N[C@@H](CO)C(N)=O)NC(=O)[C@H](CC(C)C)NC(=O)[C@H](CCCCN)NC(=O)[C@H](CCCCN)NC(=O)[C@H]([C@@H](C)CC)NC1=O` is reported as 26.2 ± 1.7 µM (parasite growth; 3D7; 72 h, 5% serum plus Albumax II).
The IC50 of `Cc1ccc(C(C)C)cc1.[Cl][Ru+].[O-]c1ccccc1C=NCCNc1ccnc2cc(Cl)ccc12` is reported as 1.3 ± 0.1 µM (parasite growth, parasite lactate dehydrogenase; Dd2 chloroquine-resistant).
For `Clc1ccc(C2=CC(c3ccc[nH]3)=NC2=CNC2CCCCC2)cc1`, the IC50 was greater than 2.5 µM (parasite growth; Dd2, chloroquine-resistant).
For `C[OH+][Cu-2]12[O]C(c3cn(-c4ccccc4)nc3-c3ccccc3)=N[N+]1=C(C)c1c(cc(C)oc1=O)[O]2` (stereo not shown), the IC50 was 5.2 µM (SYBR Green I; 3D7; 72 h).
`CCCCNCC(O)Cn1c2ccc(Br)cc2c2cc(Br)ccc21` (stereo not shown) gave an IC50 of 0.492 ± 0.1 µM (SYBR Green I; 3D7 chloroquine-sensitive; 72 h).
With `Cc1[nH]c(C=NC23CC4CC(CC(C4)C2)C3)c(C)c1-c1ccc[nH]1` the IC50 was 2 µM (parasite growth; 7G8, chloroquine-resistant).
`N#Cc1c(-c2ccco2)[n+]([O-])c2ccc(F)cc2[n+]1[O-]` gave an IC50 of 0.59 ± 0.06 µM (parasite growth, [3H]hypoxanthine incorporation; K1 chloroquine-resistant).
With `COC1=CC(c2ccc[nH]2)=NC12OC(C)CC1CCCCCCCc3ccc([nH]3)C12` (stereo not shown) the IC50 was 0.012 µM (parasite growth; DD2; drug-resistant strain, blood stage).
With `CC[C@H](C)[C@@H]1NC(=O)[C@H](CCCCN)NC(=O)[C@H](CCCNC(=N)N)NC(=O)[C@H](Cc2ccc(O)cc2)NC(=O)[C@H](CC(C)C)NC(=O)[C@@H]2CCCN2C(=O)[C@H](C)NC(=O)CNC(=O)CNC(=O)[C@H](CO)NC(=O)CNC(=O)CNC(=O)[C@H](CO)NC(=O)[C@H](CCC(=O)O)NC(=O)[C@H](CC(C)C)NC(=O)[C@H](CC(C)C)NC(=O)[C@H](CCCCN)NC(=O)[C@H](CCCCN)NC(=O)[C@H]([C@@H](C)CC)NC(=O)[C@H]([C@@H](C)CC)NC(=O)[C@H](CCCCN)NC(=O)[C@H](CCCNC(=N)N)NC(=O)[C@H](Cc2ccc(O)cc2)NC(=O)[C@H](CC(C)C)NC(=O)[C@@H]2CCCN2C(=O)CNC(=O)CNC(=O)[C@@H](NC(=O)CN)CSSC[C@@H](C(N)=O)NC(=O)[C@H](CC(C)C)NC(=O)[C@H](CCCCN)NC(=O)[C@H](CCCCN)NC(=O)[C@H]([C@@H](C)CC)NC1=O` the IC50 was 5 ± 0.2 µM (parasite growth; 3D7; 72 h, Albumax II medium, no serum).
The IC50 of `Clc1ccc(C2=CC(c3ccc[nH]3)=NC2=CNC2CCCC2)cc1` is reported as 0.51 µM (parasite growth; 7G8, chloroquine-resistant).
`O=C1C(O)=C(CN2CCNCC2)C(=O)c2ccccc21` gave an IC50 of 110 µM (parasite growth; W2; drug-resistant strain, blood stage).
The IC50 of `C1=CC(c2ccc[nH]2)=NC1=CNC1CCCCCCC1` is reported as greater than 2.5 µM (parasite growth; Dd2, chloroquine-resistant).
`CCCC1(CC)OOC2(CCN(C(=O)c3ccccc3)CC2)OO1` gave an IC50 of 0.0178 µM (parasite growth, imaging; 3D7; 48 h, blood stage).
`CC(C)C1=CC(=CNC23CC4CC(CC(C4)C2)C3)N=C1c1ccc[nH]1` gave an IC50 of 0.031 µM (parasite growth; 7G8, chloroquine-resistant).
`CC[C@H](C)[C@@H]1NC(=O)[C@H](CCCCN)NC(=O)[C@H](CCCCN)NC(=O)[C@H](Cc2ccc(O)cc2)NC(=O)[C@H](CC(C)C)NC(=O)[C@@H]2CCCN2C(=O)[C@H](C)NC(=O)CNC(=O)CNC(=O)[C@H](CO)NC(=O)CNC(=O)CNC(=O)[C@H](CC(N)=O)NC(=O)[C@H](CCC(=O)O)NC(=O)[C@H](CC(C)C)NC(=O)[C@H](CC(C)C)NC(=O)[C@H](CCCCN)NC(=O)[C@H](CCCCN)NC(=O)[C@H]([C@@H](C)CC)NC(=O)[C@H]([C@@H](C)CC)NC(=O)[C@H](CCCCN)NC(=O)[C@H](CCCCN)NC(=O)[C@H](Cc2ccc(O)cc2)NC(=O)[C@H](CC(C)C)NC(=O)[C@@H]2CCCN2C(=O)[C@H](C)NC(=O)CNC(=O)CNC(=O)[C@H](CO)NC(=O)CNC(=O)CNC(=O)[C@H](CC(N)=O)NC(=O)[C@H](CCC(=O)O)NC(=O)[C@H](CC(C)C)NC(=O)[C@H](CC(C)C)NC(=O)[C@H](CCCCN)NC(=O)[C@H](CCCCN)NC(=O)[C@H]([C@@H](C)CC)NC1=O` has an IC50 of 8.7 ± 0.7 µM (parasite growth; 3D7; 72 h, 5% serum plus Albumax II).
For `COc1cccc2c(-c3ccc(O)c4c3CCNC4)ccc(O)c12`, the IC50 was 0.796 µM (parasite growth, SYBR Green; W2; 96 h, drug-resistant strain, blood stage).
`CCc1c(-c2ccc[nH]2)c[nH]c1C=NC12CC3CC(CC(C3)C1)C2` has an IC50 of greater than 2.5 µM (parasite growth; 7G8, chloroquine-resistant).
With `CC[C@H](C)[C@@H]1NC(=O)[C@H](CCCCN)NC(=O)[C@H](CCCCN)NC(=O)[C@H](Cc2ccc(O)cc2)NC(=O)[C@H](CC(C)C)NC(=O)[C@@H]2CCCN2C(=O)[C@H](C)NC(=O)CNC(=O)CNC(=O)[C@H](CO)NC(=O)CNC(=O)CNC(=O)[C@H](CO)NC(=O)[C@H](CCC(=O)O)NC(=O)[C@H](CC(C)C)NC(=O)[C@H](CC(C)C)NC(=O)[C@H](CCCCN)NC(=O)[C@H](CCCCN)NC(=O)[C@H]([C@@H](C)CC)NC(=O)[C@H]([C@@H](C)CC)NC(=O)[C@H](CCCCN)NC(=O)[C@H](CCCCN)NC(=O)[C@H](Cc2ccc(O)cc2)NC(=O)[C@H](CC(C)C)NC(=O)[C@@H]2CCCN2C(=O)[C@H](C)NC(=O)CNC(=O)CNC(=O)[C@H](CO)NC(=O)CNC(=O)CNC(=O)[C@H](CO)NC(=O)[C@H](CCC(=O)O)NC(=O)[C@H](CC(C)C)NC(=O)[C@H](CC(C)C)NC(=O)[C@H](CCCCN)NC(=O)[C@H](CCCCN)NC(=O)[C@H]([C@@H](C)CC)NC1=O` the IC50 was 7.9 ± 0.8 µM (parasite growth; 3D7; 72 h, Albumax II medium, no serum).
For `OCCc1cc(CN(Cc2ccccn2)Cc2ccccn2)c(O)c(CN(Cc2ccccn2)Cc2ccccn2)c1`, the IC50 was 0.29 ± 0.028 µM (growth, [3H]hypoxanthine incorporation; HB3 chloroquine-sensitive; 48 h).
`c1cncc(CCCOCCCCCCOC2CCCCO2)c1` (stereo not shown) gave an IC50 of 53.7 ± 0.7 µM (anti-HRPII ELISA; W2 chloroquine-resistant; 72 h).
The IC50 of `CC[C@H](C)[C@@H]1NC(=O)[C@H](CCCNC(=N)N)NC(=O)[C@H](CCCCN)NC(=O)[C@H](Cc2ccc(O)cc2)NC(=O)[C@H](CC(C)C)NC(=O)[C@@H]2CCCN2C(=O)[C@H](C)NC(=O)CNC(=O)CNC(=O)[C@H](CO)NC(=O)CNC(=O)CNC(=O)[C@H](CO)NC(=O)[C@H](CCC(=O)O)NC(=O)[C@H](CC(C)C)NC(=O)[C@H](CC(C)C)NC(=O)[C@H](CCCCN)NC(=O)[C@H](CCCCN)NC(=O)[C@H]([C@@H](C)CC)NC(=O)[C@H]([C@@H](C)CC)NC(=O)[C@H](CCCNC(=N)N)NC(=O)[C@H](CCCCN)NC(=O)[C@H](Cc2ccc(O)cc2)NC(=O)[C@H](CC(C)C)NC(=O)[C@@H]2CCCN2C(=O)CNC(=O)CNC(=O)[C@@H](NC(=O)CN)CSSC[C@@H](C(N)=O)NC(=O)[C@H](CC(C)C)NC(=O)[C@H](CCCCN)NC(=O)[C@H](CCCCN)NC(=O)[C@H]([C@@H](C)CC)NC1=O` is reported as 4.5 ± 0.1 µM (parasite growth; 3D7; 72 h, Albumax II medium, no serum).
The IC50 of `CN(C)CCNC(=O)/C=C/[C@H](Cc1ccccc1)Nc1ccnc2cc(Cl)ccc12` is reported as 0.142 ± 0.0567 µM (parasite growth, SYTOX green flow cytometry; K1 chloroquine-resistant; 48 h, ring stage).
`Cc1[nH]c2ccccc2c1C1CCN(CC2CCC(NC(=O)/C=C/c3ccc(Cl)c(Cl)c3)CC2)CC1` (stereo not shown) gave an IC50 of 0.0458 ± 0.00511 µM (parasite growth, flow cytometry; 3D7; 72 h).
The IC50 of `CC[C@H](C)[C@@H]1NC(=O)[C@H](CCCCN)NC(=O)[C@H](CCCCN)NC(=O)[C@H](Cc2ccc(O)cc2)NC(=O)[C@H](CC(C)C)NC(=O)[C@@H]2CCCN2C(=O)[C@H](C)NC(=O)CNC(=O)CNC(=O)[C@H](CO)NC(=O)CNC(=O)CNC(=O)[C@H](CO)NC(=O)[C@H](CCC(=O)O)NC(=O)[C@H](CC(C)C)NC(=O)[C@H](CC(C)C)NC(=O)[C@H](CCCCN)NC(=O)[C@H](CCCNC(=N)N)NC(=O)[C@H]([C@@H](C)CC)NC(=O)[C@H]([C@@H](C)CC)NC(=O)[C@H](CCCCN)NC(=O)[C@H](CCCCN)NC(=O)[C@H](Cc2ccc(O)cc2)NC(=O)[C@H](CC(C)C)NC(=O)[C@@H]2CCCN2C(=O)CNC(=O)CNC(=O)[C@@H](NC(=O)CN)CSSC[C@@H](C(N)=O)NC(=O)[C@H](CC(C)C)NC(=O)[C@H](CCCCN)NC(=O)[C@H](CCCNC(=N)N)NC(=O)[C@H]([C@@H](C)CC)NC1=O` is reported as 11.2 ± 0.6 µM (parasite growth; 3D7; 72 h, 5% serum plus Albumax II).
`CCC1=C(C)C(c2ccc[nH]2)=NC1=CNC1CCCCCC1` has an IC50 of 0.117 µM (parasite growth; 7G8, chloroquine-resistant).
`COC(=O)[C@@H]1Cc2c([nH]c3ccccc23)[C@H](c2cccs2)N1` gave an IC50 of 8.66 µg/mL (parasite growth; 48 h, drug-resistant strain, blood stage).
`Oc1c(CN(Cc2ccccn2)Cc2ccccn2)cc(CCn2cc(COCCOCCOCCOCc3cn(CCc4cc(CN(Cc5ccccn5)Cc5ccccn5)c(O)c(CN(Cc5ccccn5)Cc5ccccn5)c4)nn3)nn2)cc1CN(Cc1ccccn1)Cc1ccccn1` has an IC50 of 0.023 ± 0.003 µM (growth, [3H]hypoxanthine incorporation; HB3 chloroquine-sensitive; 48 h).
For `CC1=CC(c2ccc[nH]2)=NC1=CNC1CCCCCC1`, the IC50 was greater than 0.25 µM (parasite growth; Dd2, chloroquine-resistant).
`COc1cc2c3cc1Oc1cc(ccc1O)CC1c4c(cc(OC)c(O)c4Oc4ccc(cc4)CC3N(C)CC2)CCN1C` (stereo not shown) gave an IC50 of 1.51 ± 0.0418 µM (parasite growth, SYBR green I; 3D7).
